Assay results collected from several papers.
Each numbered part is a random draw from the data of one study; scales do not carry over between parts. Values joined by “and” are separate records of one study, mostly repeats; a detail may differ.
Chain of UniProt Q13873 (whole entry, looked up): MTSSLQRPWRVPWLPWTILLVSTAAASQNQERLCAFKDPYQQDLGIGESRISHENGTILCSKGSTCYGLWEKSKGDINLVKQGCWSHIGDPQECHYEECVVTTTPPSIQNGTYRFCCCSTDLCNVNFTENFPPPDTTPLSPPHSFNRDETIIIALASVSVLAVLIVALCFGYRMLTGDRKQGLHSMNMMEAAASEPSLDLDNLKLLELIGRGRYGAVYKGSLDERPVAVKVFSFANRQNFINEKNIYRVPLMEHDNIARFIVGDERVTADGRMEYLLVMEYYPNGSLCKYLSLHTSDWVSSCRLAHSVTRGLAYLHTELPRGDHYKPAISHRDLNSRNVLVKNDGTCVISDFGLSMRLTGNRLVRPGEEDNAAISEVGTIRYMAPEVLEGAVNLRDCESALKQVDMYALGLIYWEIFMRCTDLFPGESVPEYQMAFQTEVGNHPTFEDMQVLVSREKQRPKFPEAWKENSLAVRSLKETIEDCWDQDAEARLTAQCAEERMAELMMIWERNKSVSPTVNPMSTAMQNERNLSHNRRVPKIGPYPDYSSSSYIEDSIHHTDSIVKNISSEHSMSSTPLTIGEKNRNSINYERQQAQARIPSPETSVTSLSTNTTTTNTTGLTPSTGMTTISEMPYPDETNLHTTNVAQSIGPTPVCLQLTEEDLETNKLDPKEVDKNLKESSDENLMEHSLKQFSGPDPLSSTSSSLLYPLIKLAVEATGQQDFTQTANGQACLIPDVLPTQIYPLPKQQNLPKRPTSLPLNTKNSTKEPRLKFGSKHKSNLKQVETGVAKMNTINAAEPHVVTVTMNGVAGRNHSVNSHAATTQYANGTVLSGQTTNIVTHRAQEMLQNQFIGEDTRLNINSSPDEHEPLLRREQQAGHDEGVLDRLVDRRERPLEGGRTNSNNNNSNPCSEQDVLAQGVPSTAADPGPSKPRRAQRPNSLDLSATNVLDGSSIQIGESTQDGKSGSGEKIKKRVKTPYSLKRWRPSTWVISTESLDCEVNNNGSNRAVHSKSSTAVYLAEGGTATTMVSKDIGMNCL
Chain of UniProt Q6ZN16 (whole entry, looked up): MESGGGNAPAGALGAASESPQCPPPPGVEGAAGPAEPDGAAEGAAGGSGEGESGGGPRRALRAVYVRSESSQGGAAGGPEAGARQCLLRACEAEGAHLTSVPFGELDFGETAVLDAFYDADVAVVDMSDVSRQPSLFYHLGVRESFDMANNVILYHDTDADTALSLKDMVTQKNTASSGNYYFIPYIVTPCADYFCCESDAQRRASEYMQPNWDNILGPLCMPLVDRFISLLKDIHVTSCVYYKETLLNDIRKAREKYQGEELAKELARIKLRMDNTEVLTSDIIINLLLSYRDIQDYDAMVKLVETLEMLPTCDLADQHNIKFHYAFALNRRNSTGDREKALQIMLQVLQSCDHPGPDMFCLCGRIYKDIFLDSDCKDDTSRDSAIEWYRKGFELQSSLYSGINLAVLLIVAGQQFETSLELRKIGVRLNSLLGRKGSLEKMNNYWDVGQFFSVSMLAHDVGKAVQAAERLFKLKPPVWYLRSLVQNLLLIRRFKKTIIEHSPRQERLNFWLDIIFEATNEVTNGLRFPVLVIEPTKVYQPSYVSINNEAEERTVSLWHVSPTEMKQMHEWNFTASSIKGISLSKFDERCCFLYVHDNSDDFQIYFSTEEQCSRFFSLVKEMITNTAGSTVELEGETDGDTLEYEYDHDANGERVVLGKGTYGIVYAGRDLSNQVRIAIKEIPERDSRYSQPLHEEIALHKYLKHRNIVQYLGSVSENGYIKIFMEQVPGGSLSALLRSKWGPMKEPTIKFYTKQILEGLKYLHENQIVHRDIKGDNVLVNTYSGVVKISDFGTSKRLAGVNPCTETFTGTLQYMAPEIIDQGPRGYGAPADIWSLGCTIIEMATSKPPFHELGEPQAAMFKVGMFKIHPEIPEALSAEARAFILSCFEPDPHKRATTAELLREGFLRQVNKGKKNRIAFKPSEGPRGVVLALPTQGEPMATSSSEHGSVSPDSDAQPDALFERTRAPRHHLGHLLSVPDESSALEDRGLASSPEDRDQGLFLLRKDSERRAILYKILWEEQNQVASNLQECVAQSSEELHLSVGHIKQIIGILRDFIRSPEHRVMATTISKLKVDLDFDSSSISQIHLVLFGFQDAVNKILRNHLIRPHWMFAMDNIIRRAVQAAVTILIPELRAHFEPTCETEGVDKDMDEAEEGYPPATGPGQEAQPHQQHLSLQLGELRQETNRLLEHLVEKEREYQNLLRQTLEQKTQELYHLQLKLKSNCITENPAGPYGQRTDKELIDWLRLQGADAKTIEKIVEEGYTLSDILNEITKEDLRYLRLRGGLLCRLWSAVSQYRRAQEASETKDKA
Chain of UniProt O15530 (whole entry, looked up): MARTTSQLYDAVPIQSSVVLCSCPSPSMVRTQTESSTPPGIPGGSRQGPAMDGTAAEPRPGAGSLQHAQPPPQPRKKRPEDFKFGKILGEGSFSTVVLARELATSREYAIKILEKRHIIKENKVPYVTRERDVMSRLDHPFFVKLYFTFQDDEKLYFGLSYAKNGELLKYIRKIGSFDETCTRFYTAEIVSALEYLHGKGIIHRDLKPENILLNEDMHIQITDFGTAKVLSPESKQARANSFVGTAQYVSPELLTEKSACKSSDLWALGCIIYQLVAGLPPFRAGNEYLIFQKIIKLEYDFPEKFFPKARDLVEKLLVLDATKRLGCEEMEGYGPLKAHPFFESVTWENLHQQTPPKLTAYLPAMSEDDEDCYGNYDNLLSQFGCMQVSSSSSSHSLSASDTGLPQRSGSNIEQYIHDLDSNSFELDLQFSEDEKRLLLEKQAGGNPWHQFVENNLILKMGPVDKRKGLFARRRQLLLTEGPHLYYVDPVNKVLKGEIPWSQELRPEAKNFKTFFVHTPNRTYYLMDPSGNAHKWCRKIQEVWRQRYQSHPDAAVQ
Chain of UniProt P51817 (whole entry, looked up): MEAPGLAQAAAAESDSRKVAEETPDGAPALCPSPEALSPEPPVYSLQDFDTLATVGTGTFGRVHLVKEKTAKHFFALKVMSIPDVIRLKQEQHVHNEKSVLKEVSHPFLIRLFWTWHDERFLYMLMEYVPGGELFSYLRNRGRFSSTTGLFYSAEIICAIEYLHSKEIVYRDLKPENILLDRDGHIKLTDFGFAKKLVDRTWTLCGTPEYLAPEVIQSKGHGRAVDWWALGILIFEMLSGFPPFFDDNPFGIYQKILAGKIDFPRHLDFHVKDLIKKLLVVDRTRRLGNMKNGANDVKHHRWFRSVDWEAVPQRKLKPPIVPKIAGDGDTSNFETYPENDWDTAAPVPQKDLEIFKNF
Chain of UniProt P11802 (whole entry, looked up): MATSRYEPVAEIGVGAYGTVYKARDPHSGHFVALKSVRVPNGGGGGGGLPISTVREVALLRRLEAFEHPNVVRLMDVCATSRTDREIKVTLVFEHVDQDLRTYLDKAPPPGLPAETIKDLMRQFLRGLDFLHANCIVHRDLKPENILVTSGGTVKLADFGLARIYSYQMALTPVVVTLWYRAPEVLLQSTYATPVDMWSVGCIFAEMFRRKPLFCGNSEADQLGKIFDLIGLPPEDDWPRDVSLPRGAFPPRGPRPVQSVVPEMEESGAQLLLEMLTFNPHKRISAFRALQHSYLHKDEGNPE

Block 1
SMILES: C[C@@H]1CN(c2ccc(-c3cc(C(=O)NCCOCCOCCOCCOCCNC(=O)Cn4cc(-c5[nH]cc(C(=O)N[C@@H](CC(N)=O)c6ccc(F)c(Cl)c6)c5-c5ccc(Cl)cc5F)cn4)ccc3F)cc2NC(=O)c2c[nH]c(=O)cc2C(F)(F)F)C[C@H](C)N1C
Read-out: thermal unfolding
Technique: differential scanning fluorimetry
Concentration: 5.5 µM
Direction: higher = more unfolded
Endpoint: SYPRO Orange fluorescence
WDR5: WD repeat-containing protein 5 (WDR5, Homo sapiens, UniProt P61964)
DCAF1: DDB1- and CUL4-associated factor 1 (DCAF1, Homo sapiens, UniProt Q9Y4B6)
Chain of UniProt Q9Y4B6 (whole entry, looked up): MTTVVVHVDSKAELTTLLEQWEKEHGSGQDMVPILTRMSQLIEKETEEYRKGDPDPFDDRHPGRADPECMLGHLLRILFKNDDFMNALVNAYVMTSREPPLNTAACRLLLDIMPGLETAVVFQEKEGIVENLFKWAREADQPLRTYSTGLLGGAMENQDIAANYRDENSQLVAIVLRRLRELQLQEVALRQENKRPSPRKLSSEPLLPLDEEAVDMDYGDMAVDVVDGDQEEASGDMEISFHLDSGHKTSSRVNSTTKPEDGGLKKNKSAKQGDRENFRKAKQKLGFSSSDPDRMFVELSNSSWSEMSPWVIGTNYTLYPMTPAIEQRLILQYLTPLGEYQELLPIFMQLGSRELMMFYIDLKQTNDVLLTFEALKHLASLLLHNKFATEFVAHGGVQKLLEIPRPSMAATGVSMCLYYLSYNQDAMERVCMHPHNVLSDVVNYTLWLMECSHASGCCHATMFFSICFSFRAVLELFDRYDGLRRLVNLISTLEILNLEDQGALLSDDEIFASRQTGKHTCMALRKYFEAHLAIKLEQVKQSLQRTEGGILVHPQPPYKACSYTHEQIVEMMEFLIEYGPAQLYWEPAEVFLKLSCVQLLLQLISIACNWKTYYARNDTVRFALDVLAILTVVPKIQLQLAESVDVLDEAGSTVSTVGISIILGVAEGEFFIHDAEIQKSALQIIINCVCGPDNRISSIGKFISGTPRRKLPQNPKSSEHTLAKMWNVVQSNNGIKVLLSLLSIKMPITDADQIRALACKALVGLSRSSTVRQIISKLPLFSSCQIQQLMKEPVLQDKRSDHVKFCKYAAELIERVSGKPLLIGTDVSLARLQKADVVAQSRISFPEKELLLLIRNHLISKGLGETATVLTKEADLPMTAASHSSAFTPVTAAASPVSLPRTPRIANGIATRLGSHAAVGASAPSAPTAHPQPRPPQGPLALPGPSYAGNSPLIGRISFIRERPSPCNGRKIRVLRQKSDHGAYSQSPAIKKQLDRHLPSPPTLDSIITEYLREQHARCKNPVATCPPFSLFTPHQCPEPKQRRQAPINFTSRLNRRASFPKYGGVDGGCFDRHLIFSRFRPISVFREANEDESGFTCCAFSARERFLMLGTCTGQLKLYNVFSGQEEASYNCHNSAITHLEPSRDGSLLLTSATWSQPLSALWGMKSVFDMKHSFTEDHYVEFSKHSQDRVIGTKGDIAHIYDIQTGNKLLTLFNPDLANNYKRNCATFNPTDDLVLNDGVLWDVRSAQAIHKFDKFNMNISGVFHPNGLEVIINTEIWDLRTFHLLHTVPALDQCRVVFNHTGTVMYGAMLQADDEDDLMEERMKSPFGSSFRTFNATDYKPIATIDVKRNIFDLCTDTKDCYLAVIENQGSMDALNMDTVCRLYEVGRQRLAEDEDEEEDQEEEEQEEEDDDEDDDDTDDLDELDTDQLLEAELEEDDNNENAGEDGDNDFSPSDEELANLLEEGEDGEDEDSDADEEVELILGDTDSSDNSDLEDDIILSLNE
WDR5; 77.81 °C: 16700 a.u.
DCAF1; 81.81 °C: 42700 a.u.
WDR5; 33.8 °C: 14400 a.u.
WDR5; 41 °C: 14200 a.u.
DCAF1; 36.4 °C: 9300 a.u.
WDR5; 58.21 °C: 11700 a.u.
DCAF1; 65.21 °C: 56100 a.u.

Block 2
Target: E3 ubiquitin-protein ligase NEDD4, HECT domain (Homo sapiens, UniProt P46934)
Read-out: enzyme activity
Mode: inhibitor
Technique: Ub-TR-FRET
Sample: HECT domain
Concentration: 11.11 µM
Direction: higher = more chain formation
Endpoint: ubiquitin chain formation AUC
Target sequence (P46934 938-1319, limits assumed): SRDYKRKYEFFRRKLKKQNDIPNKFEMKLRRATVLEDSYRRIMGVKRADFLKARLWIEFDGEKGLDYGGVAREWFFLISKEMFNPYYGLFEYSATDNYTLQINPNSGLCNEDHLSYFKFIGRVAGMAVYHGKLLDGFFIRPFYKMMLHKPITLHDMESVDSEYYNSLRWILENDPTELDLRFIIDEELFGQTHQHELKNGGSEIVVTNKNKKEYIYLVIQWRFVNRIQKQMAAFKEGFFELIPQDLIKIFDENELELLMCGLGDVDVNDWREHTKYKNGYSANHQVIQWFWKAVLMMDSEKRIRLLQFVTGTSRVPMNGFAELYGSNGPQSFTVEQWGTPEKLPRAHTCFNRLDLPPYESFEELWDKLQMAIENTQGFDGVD
CCOC(=O)/C=C/CNCCCCN1c2ccccc2C(=O)N(C)c2ccc(Cl)cc21.O=C(O)/C=C\C(=O)O: 16500 a.u. and 18400 a.u. and 16200 a.u.
CNC(=O)/C=C/CNCCCCN1c2ccccc2CCc2ccc(Cl)cc21.Cl: 56800 a.u. and 62700 a.u. and 53200 a.u. and 65700 a.u. and 45700 a.u. and 46700 a.u.
CCOC(=O)/C=C/CN(CCCCN1c2ccccc2CCc2ccc(Cl)cc21)C(C)C.O=C(O)/C=C\C(=O)O: 16800 a.u. and 12700 a.u. and 13300 a.u. and 16200 a.u. and 16500 a.u. and 11900 a.u.
Cl.NC(=O)/C=C/CNCCCN1c2ccccc2CCc2ccc(Cl)cc21: 117000 a.u. and 115000 a.u. and 118000 a.u.
CCOC(=O)/C=C/CNCCCN1c2ccccc2CCc2ccc(Cl)cc21: 7160 a.u. and 6740 a.u. and 5640 a.u.
CCOC(=O)/C=C/CN(CC)CCCCN1c2ccccc2CCc2ccc(Cl)cc21.O=C(O)/C=C\C(=O)O: 15100 a.u. and 13100 a.u. and 13400 a.u. and 16900 a.u. and 14300 a.u.
CCOC(=O)/C=C/CNCCCCN1c2cc(Cl)ccc2C(=O)N(C)c2ccccc21.O=C(O)/C=C\C(=O)O: 9960 a.u. and 9590 a.u. and 10700 a.u.
CNC(=O)/C=C/CNCCCN1c2ccccc2CCc2ccc(Cl)cc21.Cl: 111000 a.u. and 108000 a.u. and 110000 a.u.
CCOC(=O)/C=C/CNCCCCN1c2cc(Cl)ccc2CCc2cnn(C)c21.O=C(O)/C=C\C(=O)O: 7440 a.u. and 14400 a.u. and 14800 a.u. and 7520 a.u. and 14500 a.u. and 8170 a.u.
CCOC(=O)/C=C/CNCCCCN1c2ccccc2COc2ccc(Cl)cc21.O=C(O)/C=C\C(=O)O: 10100 a.u. and 10300 a.u.
COC(=O)/C=C/C(=O)NCCCN1c2ccccc2CCc2ccc(Cl)cc21: 167000 a.u. and 168000 a.u. and 160000 a.u.
C=CC(=O)NCCCN1c2ccccc2CCc2ccc(Cl)cc21: 182000 a.u. and 184000 a.u.
CCONC(=O)/C=C/CNCCCCN1c2ccccc2CCc2ccc(Cl)cc21.O=C(O)/C=C\C(=O)O: 4840 a.u. and 4130 a.u. and 4770 a.u. and 4440 a.u. and 4740 a.u. and 4230 a.u.

Block 3
Structure (SMILES): Cc1ccc(O)c(C)c1-c1cnc2[nH]c(-c3cnc(N4CCC(CCN5CCN(c6cc7c(cc6F)c(N6CCC(=O)NC6=O)nn7C)CC5)CC4)nc3)cc2c1C#N
Target: Membrane-associated tyrosine- and threonine-specific cdc2-inhibitory kinase (PKMYT1, Homo sapiens, UniProt Q99640)
Mode: degrader
Technique: automated immunoblot (Jess)
Reference: GAPDH
Endpoint: protein level
Target sequence (Q99640 1-499): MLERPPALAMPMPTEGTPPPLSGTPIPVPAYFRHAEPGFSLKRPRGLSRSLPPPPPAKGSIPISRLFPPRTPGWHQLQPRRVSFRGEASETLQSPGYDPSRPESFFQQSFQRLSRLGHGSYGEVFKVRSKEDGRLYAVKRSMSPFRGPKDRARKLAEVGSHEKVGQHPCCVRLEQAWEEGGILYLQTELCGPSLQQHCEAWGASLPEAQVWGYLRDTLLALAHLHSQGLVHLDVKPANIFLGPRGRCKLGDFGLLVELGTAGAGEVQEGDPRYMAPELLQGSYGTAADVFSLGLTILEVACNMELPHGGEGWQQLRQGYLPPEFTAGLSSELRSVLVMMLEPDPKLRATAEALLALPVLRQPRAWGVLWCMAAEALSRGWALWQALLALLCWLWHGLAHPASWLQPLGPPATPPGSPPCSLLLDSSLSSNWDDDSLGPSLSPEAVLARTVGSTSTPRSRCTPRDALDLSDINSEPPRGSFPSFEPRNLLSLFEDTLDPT
0.1 nM: 70.6%
100 nM: 24%
1 nM: 38.1%
10 nM: 20.5%

Block 4
Compound: CC[C@@]1(c2cccc(C(F)(F)F)c2)C2=C(Nc3n[nH]cc31)[C@H](F)C(C)(C)CC2=O (single isomer, unassigned)
Concentration: 1 µM
Endpoint: remaining binding
Tyrosine-protein kinase ABL1, phosphorylated (ABL1, Homo sapiens, UniProt P00519, Y253F); binding, competition with immobilised ligand: 56%
Mitogen-activated protein kinase kinase kinase 15 (MAP3K15, Homo sapiens, UniProt Q6ZN16); binding, competition with immobilised ligand: 91%
3-phosphoinositide-dependent protein kinase 1 (PDPK1, Homo sapiens, UniProt O15530); kinase binding, KINOMEscan; reference: DMSO control: 100%
Bone morphogenetic protein receptor type-2 (BMPR2, Homo sapiens, UniProt Q13873); binding, competition with immobilised ligand: 89%
TRAF2 and NCK-interacting protein kinase (TNIK, Homo sapiens, UniProt Q9UKE5); kinase binding, KINOMEscan; reference: DMSO control: 92%
cAMP-dependent protein kinase catalytic subunit PRKX (PRKX, Homo sapiens, UniProt P51817); binding, competition with immobilised ligand: 83%
Homeodomain-interacting protein kinase 3 (HIPK3, Homo sapiens, UniProt Q9H422); kinase binding, KINOMEscan; reference: DMSO control: 100%
STE20-like serine/threonine-protein kinase (SLK, Homo sapiens, UniProt Q9H2G2); kinase binding, KINOMEscan; reference: DMSO control: 100%
Mitogen-activated protein kinase kinase kinase 3 (MAP3K3, Homo sapiens, UniProt Q99759); binding, competition with immobilised ligand: 97%
Ribosomal protein S6 kinase alpha-3, N-terminal kinase domain (RPS6KA3, Homo sapiens, UniProt P51812); kinase binding, KINOMEscan; reference: DMSO control: 100%
Epidermal growth factor receptor (EGFR, Homo sapiens, UniProt P00533, G719S); binding, competition with immobilised ligand: 100%
Ephrin type-A receptor 1 (EPHA1, Homo sapiens, UniProt P21709); binding, competition with immobilised ligand: 100%
Cyclin-dependent kinase 4, with cyclin D3 (CDK4, Homo sapiens, UniProt P11802); kinase binding, KINOMEscan; reference: DMSO control: 98%

Repeated from above (block 4):
Ribosomal protein S6 kinase alpha-3, N-terminal kinase domain (RPS6KA3, Homo sapiens, UniProt P51812); kinase binding, KINOMEscan; reference: DMSO control: 100%
STE20-like serine/threonine-protein kinase (SLK, Homo sapiens, UniProt Q9H2G2); kinase binding, KINOMEscan; reference: DMSO control: 100%
